# Assay results pooled from the literature.
# Compare with care: the assays were run in different laboratories. Several values in a cell are separate wells, animals, samples, runs or records. ± marks the error that the study gave.
Compound,test,test system,conditions,how to read,endpoint,result
CC(C)OCCOCc1ccc(OCC(O)CN(N=O)C(C)C)cc1 (stereo not shown),"duplex sequencing, item: mutation frequency","NMRI mouse, bone marrow","oral, 4 weeks",,lowest dose significant mutation increase,29.9 mg/kg
N#C[C@@H]1CC(F)(F)CN1C(=O)CNC(=O)c1ccnc2c(NC(=O)[C@H](CCCCNC(=O)CCOCCOCCOCCOCCOCCOCCNC(=O)CN3CCN(CC(=O)[O-])CCN(CC(=O)[O-])CCN(CC(=O)[O-])CC3)NC(=O)CCCc3ccc(I)cc3)cccc12.[177Lu+3],,"mouse, U-87 MG tumour xenograft, lung",96 h,,tissue uptake,0.35 ± 0.24 %ID/g
COc1ccc([C@@H]2CC(=O)c3c(O)cc(O[C@@H]4O[C@H](CO)[C@@H](O)[C@H](O)[C@H]4O[C@@H]4O[C@@H](C)[C@H](O)[C@@H](O)[C@H]4O)cc3O2)cc1O,LC-MS/MS,"Sprague-Dawley rat, male, lean, plasma","oral, 100 mg/kg",,Tmax,4.02 ± 2.03 h
COCC1CN(C2CCN(c3cc(OC)c(Nc4ncc(Br)c(Nc5ccc6c(c5P(C)(C)=O)OCCO6)n4)cc3C)CC2)C1,first-in-human trial,human,"oral, 240 mg once daily",treatment-related leading to dose reduction,adverse events,0%
O=C(Nc1cnccc1-c1ccc([18F])cc1)c1ccnc(NC(=O)C2CC2)c1,,"FVB/NJ mice (both sexes), large intestine","intravenous, dose not given, 120 min",,SUV,0.59
CN(C)S(=O)(=O)c1ccc(S(=O)(=O)N2CCC(n3c(=O)[nH]c4ccccc43)CC2)cc1,,mouse,"intraperitoneal, 6 mg/kg, 6 day",baseline: day 0,body weight,101%
O=C(O)CCCOc1ccc([18F])cc1-c1cc(-c2ccccc2C(F)(F)F)n(-c2ccccc2)n1,,"mouse, large intestine","dose not given, 360 min",,radioactivity,6.4 %ID/organ
O=C([O-])CN1CCN(CC(=O)[O-])CCN(CC(O)CN(CC(O)CN2CCN(CC(=O)[O-])CCN(CC(=O)[O-])CCN(CC(=O)[O-])CC2)C[C@H](O)[C@@H](O)[C@H](O)[C@H](O)CO)CCN(CC(=O)[O-])CC1.[Gd+3] (stereo partly shown),"pH-potentiometry, spectrophotometry, item: Gd(LH-1)M, M = Cu2+",,"25 °C, 0.15 M NaCl",,log K,9.99
[11CH3]N1CCC(NC(=O)c2cc(-c3c(O)cc(O)cc3Oc3ccc([N+](=O)[O-])cc3)on2)CC1,,"Wistar rat, female, healthy, spleen","intravenous, 18.5 MBq, 2 min",,SUV,2.3 ± 0.2
O=C1CCC(N2Cc3cc(N4CCN(CC5CCN(c6ccc(C7c8ccc(OC9OC(C(=O)O)C(O)C(O)C9O)cc8CCC7c7ccccc7)cc6)CC5)CC4)ccc3C2=O)C(=O)N1 (stereo not shown),,"Sprague-Dawley rat, female, bile duct-cannulated, bile",0 to 72 h,baseline: dose,biliary excretion,0.32%
CCn1nc(Cl)c2c1-c1cnc(N)c(c1)O[C@H](C)c1cc(F)ccc1-c1nn(C)cc1C2,,"Balb/c nude mouse, female, plasma","0.5 mg/kg, single dose, 12 h",,free plasma concentration,0.00168 µM
Cc1cc(-c2ccc(C(=O)[C@@H]3CCCC[C@H]3C(=O)Nc3cnn4c3C(=O)NCC4)cc2)[nH]n1,,"human, faeces","oral, 200 mg, 0-144 h",baseline: dose,cumulative radioactivity recovery,85.3% and 46.8% and 81.2% and 74.2% and 71.8% and 75.6%
O=S(=O)(NCc1ccncc1)c1ccc(C2CCCCC2)cc1,,CK-p25 mouse,0.3 mg/kg,baseline: vehicle,body weight change,12 ± 2 g
C=CC(=O)N1CCCC(n2c(=O)c3ncccc3n(Cc3ccc(Oc4ccccc4)cc3)c2=O)C1 (stereo not shown),metabolic stability,"male CD-1 mouse, hepatocytes","1 µM, 30 min",,compound remaining,8.2%
C=CC(=O)Nc1cc(Nc2nccc(-c3cn(C)c4ccccc34)n2)c(OC)cc1N(C)CCNC,,"human, dried blood spots","270 ng/mL, 30 d, on ice, high QC level",,remaining compound,50.2%
CC(=O)N([O-])CCCCCNC(=O)CCC(=O)N([O-])CCCCCNC(=O)CCC(=O)N([O-])CCCCCN.[89Zr+4],,mouse plasma,"3 d, 37 °C",,intact complex,92.7 ± 3.4%
OC1(C(F)(F)F)CCN(c2nc(Nc3ccnc(C(F)(F)F)c3)nc(-c3cccc(C(F)(F)F)n3)n2)C1 (stereo not shown),,"monkey, both sexes, plasma","oral, 3 mg/kg",,absolute bioavailability,114%
C=C(NC(=O)c1csc(-c2nc3c(cc2O)-c2nc(cs2)C(=O)NC(C(C)O)C(=O)NC(=C(C)OC)c2nc(cs2)C(=O)NC2c4nc(cs4)C(=O)NC(COC(=O)c4c5c6c(cccc6n4O)COC(=O)C(OC4CC(C)(O)C(N(C)C)C(C)O4)C2OC5)c2nc-3cs2)n1)C(N)=O (stereo not shown),,"Sprague-Dawley rat, male, plasma","intravenous infusion, 18 mg/kg single dose",,MRT(0-last),2.36 h
O=c1c2ccccc2[se]n1CCCCCCn1[se]c2ccccc2c1=O,"shake-flask, RP-HPLC",1-octanol,"24 h, 25 °C",,solubility,1060 ± 80 µg/mL
C/C(N)=N/C(=N\S(=O)(=O)c1ccc(C(F)(F)F)cc1)N1C[C@H](c2ccccc2)C(c2ccc(Cl)cc2)=N1,,"C57BL/6 mouse, kidney","intravenous, 10 mg/kg",,AUC(0-inf),67500 ng·h/mL
COc1cc(N2CCN(C(=O)C3CCCN3)CC2)ccc1Nc1ncc(Cl)c(Nc2ccccc2P(C)(C)=O)n1 (stereo not shown),,"nude mice, NCI-H3122 xenograft","intraperitoneal, 10 mg/kg every other day, day 9",,body weight,26.5 g and 24.7 g and 24.5 g and 22.3 g and 25.4 g
CN1CCC[C@]1(C)/C=C/S(=O)(=O)NC(=O)Nc1c2c(cc3c1CCC3)CC=C2,,"human, plasma","oral, 100 mg twice daily of parent drug, day 14, metabolite of dosed drug",,Cmax at second steady-state dose,43600 ng/mL
Cc1nn(-c2nc3c(F)cc(F)cc3s2)c(O)c1C(c1ccc(C(F)(F)F)cc1)c1c(C)nn(-c2nc3c(F)cc(F)cc3s2)c1O,,ICR mouse,"intravenous, 5 mg/kg, 4.00 h",,plasma concentration,5820 ng/mL and 1190 ng/mL and 5230 ng/mL
COc1ccc(C(N)=O)cn1,,"Han Wistar rats, male, plasma","oral, 30 mg/kg, 1.00 h",,concentration at time,94 µM
CC[C@H](C)[C@H](NC(=O)CNC(=O)[C@H](C)NC(=O)[C@H](CC(=O)O)NC(=O)[C@H](CO)NC(=O)[C@H](C)NC(=O)[C@H](CC(C)C)NC(=O)[C@H](CCCCN)NC(=O)[C@H](CCCCN)NC(=O)[C@H](CCSC)NC(=O)[C@H](CC(N)=O)NC(=O)[C@H](Cc1ccccc1)NC(=O)[C@H](CC(=O)O)NC(=O)[C@@H](N)CCSC)C(=O)N[C@@H](Cc1c[nH]c2ccccc12)C(=O)N[C@@H](Cc1ccccc1)C(=O)N[C@H](C(=O)N[C@@H](CCCNC(=N)N)C(=O)N[C@@H](C)C(=O)N[C@H](C(=O)N[C@@H](CCC(N)=O)C(=O)N[C@@H](Cc1ccccc1)C(=O)N[C@H](C(=O)N[C@@H](CCC(=O)O)C(=O)N[C@@H](CCC(=O)O)C(=O)N[C@@H](CCCCN)C(=O)N[C@@H](Cc1ccccc1)C(=O)NCC(=O)N[C@@H](CCC(N)=O)C(=O)N[C@@H](C)C(N)=O)[C@@H](C)O)C(C)C)[C@@H](C)O,circular dichroism titration,25% DOPS/75% DOPC liposomes,"50 µM, pH 7.4, 20 °C",,ΔG of binding,-6.8 kcal/mol
CC[C@H](C)[C@H](NC(=O)[C@H](CCCCN)NC(C)=O)C(=O)N[C@@H](C)C(=O)N[C@@H](C)C(=O)N[C@@H](CC(C)C)C(=O)N[C@@H](CCCCN)C(=O)N[C@@H](CCC(=O)O)C(=O)N[C@@H](CCCCN)C(=O)N[C@H](C(=O)N[C@H]1CSCc2cccc(c2)CSC[C@@H](C(=O)N[C@@H](CCCCN)C(=O)N[C@H](C(=O)N[C@@H](C)C(=O)N[C@@H](C)C(=O)N[C@@H](CC(C)C)C(=O)N[C@@H](CCCCN)C(=O)N[C@@H](CCC(=O)O)C(=O)NCC(=O)N[C@@H](Cc2c[nH]c3ccccc23)C(N)=O)[C@@H](C)CC)NC(=O)[C@H](CCCCN)NC(=O)[C@H](CC(C)C)NC(=O)[C@H](C)NC1=O)[C@@H](C)CC,tryptophan fluorescence titration,DOPC/DOPE/cholesterol 2:1:1 liposomes in PBS,,,ΔG of membrane partitioning,-6.68 kcal/mol
COc1cccc(OC)c1-c1cc(C(=O)NC2(C(=O)O)C3CC4CC(C3)CC2C4)nn1-c1ccc(C(=O)N(C)CCOCCN(C)C(=O)[C@H](CCCCNC(=O)[C@H](CC(C)C)NC(=O)C2OC2C(=O)O)NC(=O)CN2CCN(CC(=O)[O-])CCN(CC(=O)[O-])CCN(CC(=O)[O-])CC2)cc1C(C)C.[177Lu+3] (mixture of isomers),,"mouse, HT-29 xenograft, brain",72 h post injection,,tissue uptake,0.007 %ID/g
C=CC(=O)Nc1cc(Nc2nccc(-c3c[nH]c4ccccc34)n2)c(OC)cc1N(C)CCN(C)C,storage stability,human plasma,"5 h, on ice, LLOQ level",,recovery,93.4%
COc1ccc(Nc2nc(Nc3ccc(OCCOCC[18F])cc3)ncc2Br)cc1,,"ICR mice, S180 tumour","intravenous, 370 kBq, 120 min",baseline: tumour over bone,uptake ratio,0.86
CN1CCCNC(=O)c2cccc(c2)C(=O)NCCCN(C)CCCNc2cccc3c2C(=O)c2cccc(c2C3=O)NCCC1,,mouse xenograft model,"dose not given, day 4, group mean",,body weight,26.4 g
CC(C)C[C@@H]1NC(=O)[C@H](CCCCN)NC(=O)CNC(=O)[C@H]2CCCN2C(=O)[C@H](CCCCN)NC(=O)[C@H](CC(C)C)NC(=O)[C@H](CCCCN)NC(=O)[C@H](CC(C)C)NC(=O)[C@H](CCCCN)NC(=O)C(N)CCC=CCCCC(C(N)=O)NC(=O)[C@H](CCCCN)NC(=O)[C@H](CC(C)C)NC(=O)[C@H](CCCCN)NC1=O (stereo partly shown),RP-HPLC C18,,hydrophobicity,,retention time,15.5 min
O=C(Nc1cnccc1-c1ccc([18F])nc1)c1ccnc(NC(=O)C2CC2)c1,,"FVB/NJ mice (both sexes), pancreas","intravenous, dose not given, 120 min, together with: tariquidar 15 mg/kg i.v. pre-dose",,SUV,0.302
Cc1ccnc(-c2cc(C(=O)O)ccn2)c1.F[P-](F)(F)(F)(F)F.F[P-](F)(F)(F)(F)F.[Ru+2].c1ccc(-c2ccccn2)nc1.c1ccc(-c2ccccn2)nc1,RNO/histidine method,PBS,together with: irradiation 365 nm,baseline: phenalenone,singlet oxygen yield,8%
CC(C)(C)C(=O)Nc1ccc2[nH]c(CN3CCC(N(CCCN4CCOCC4)CC4OC(n5cnc6c(N)ncnc65)C(O)C4O)CC3)nc2c1 (stereo not shown),,"male Sprague-Dawley rat, plasma","intraperitoneal, 20 mg/kg, 45 min",,concentration,1290 ng/mL
CCCCCCCOc1ccc(CC[C@](N)(CO)COP(=O)(O)O)cc1C(F)(F)F,,"healthy human males, plasma","0.25 mg, day 1",,Cmax,0.722 ng/mL
CN(O)C(=O)CCC(=O)NCCCN(CCCCN(CCCNC(=O)CCC(=O)N(C)O)C(=O)CCC(=O)N(C)O)C(=O)CCC(=O)N(C)O.[89Zr],radio-TLC,aqueous buffer,"7 d, pH 5, 37 °C, 89Zr-labelled complex, together with: DTPA 100-fold excess",,intact complex,98.2 ± 1%
CN([O-])C(=O)CN1CCN(CC(=O)N(C)[O-])CCN(Cc2ccccn2)CC1.[89Zr+4],,"mouse, spleen","intravenous, 4 h",,tracer uptake,0.25 %ID/g
CC(C)(O)c1ncc([S@](N)(=O)=NC(=O)Nc2c3c(cc4c2CCC4)CCC3)s1,"item: musculoskeletal, connective tissue",healthy human,"oral, 25 mg, 14 days, ECT formulation, twice daily",,subjects with TEAEs,25%
CN1CCC[C@]1(C)/C=C/S(=O)(=O)NC(=O)Nc1c2c(cc3c1C(O)CC3)CCC2 (stereo partly shown),,"human, plasma","oral, 100 mg twice daily of parent drug, day 14, metabolite of dosed drug",,Cmax at second steady-state dose,20400 ng/mL
CCCCN1C(=O)c2cccc3c(NCCN4CCOCC4)ccc(c23)C1=O,,ethylene glycol,,,fluorescence lifetime,6.8 ns
Cc1c(Cc2ccc(F)c(OC(C)C(=O)O)c2)c2ccc(C(=O)NC(C)c3ccc(C(C)(C)C)cc3)cc2n1CC(C)C (stereo not shown),,human liver microsomes,"1 µM, together with: microsomes 1 mg/mL",,half-life,> 1 h
CNc1cc(N)c(C(N)=O)cn1,,"Han Wistar rats, male, plasma","oral, 30 mg/kg, 0.50 h",,concentration at time,33.6 µM
O=c1c2sccc2n(CC2COc3ccccc3O2)c(=O)n1O (stereo not shown),,Caco-2,10 µM,,efflux ratio,0.4

# Repeated from above:
Compound,test,test system,conditions,how to read,endpoint,result
O=C(O)CCCOc1ccc([18F])cc1-c1cc(-c2ccccc2C(F)(F)F)n(-c2ccccc2)n1,,"mouse, large intestine","dose not given, 360 min",,radioactivity,6.4 %ID/organ
O=C([O-])CN1CCN(CC(=O)[O-])CCN(CC(O)CN(CC(O)CN2CCN(CC(=O)[O-])CCN(CC(=O)[O-])CCN(CC(=O)[O-])CC2)C[C@H](O)[C@@H](O)[C@H](O)[C@H](O)CO)CCN(CC(=O)[O-])CC1.[Gd+3] (stereo partly shown),"pH-potentiometry, spectrophotometry, item: Gd(LH-1)M, M = Cu2+",,"25 °C, 0.15 M NaCl",,log K,9.99
[11CH3]N1CCC(NC(=O)c2cc(-c3c(O)cc(O)cc3Oc3ccc([N+](=O)[O-])cc3)on2)CC1,,"Wistar rat, female, healthy, spleen","intravenous, 18.5 MBq, 2 min",,SUV,2.3 ± 0.2
O=C1CCC(N2Cc3cc(N4CCN(CC5CCN(c6ccc(C7c8ccc(OC9OC(C(=O)O)C(O)C(O)C9O)cc8CCC7c7ccccc7)cc6)CC5)CC4)ccc3C2=O)C(=O)N1 (stereo not shown),,"Sprague-Dawley rat, female, bile duct-cannulated, bile",0 to 72 h,baseline: dose,biliary excretion,0.32%
CCn1nc(Cl)c2c1-c1cnc(N)c(c1)O[C@H](C)c1cc(F)ccc1-c1nn(C)cc1C2,,"Balb/c nude mouse, female, plasma","0.5 mg/kg, single dose, 12 h",,free plasma concentration,0.00168 µM
Cc1cc(-c2ccc(C(=O)[C@@H]3CCCC[C@H]3C(=O)Nc3cnn4c3C(=O)NCC4)cc2)[nH]n1,,"human, faeces","oral, 200 mg, 0-144 h",baseline: dose,cumulative radioactivity recovery,85.3% and 46.8% and 81.2% and 74.2% and 71.8% and 75.6%
